Measured values of several laboratories.
Parts stem from different laboratories: compare values within a part only. “And” joins repeats or separate records; there may be more than shown.

Study 1
Target: Replicase polyprotein 1ab, main protease (rep, Severe acute respiratory syndrome coronavirus 2, UniProt P0DTD1)
Read-out: enzyme activity
Mode: inhibitor
Compound	IC50 [µM]
O=C1/C(=C/c2ccc([N+](=O)[O-])cc2)CS(=O)(=O)C/C1=C\c1ccc([N+](=O)[O-])cc1	3.89
NC[C@@H]1O[C@H](C23CC4CC(CC(C4)C2)C3)Cc2c1ccc(O)c2O	> 20
O=C1C(=Cc2cccnc2)C(=O)c2ccccc21	> 20

Study 2
Target: Replicase polyprotein 1ab, nsp13 helicase (rep, Severe acute respiratory syndrome coronavirus 2, UniProt P0DTD1)
Mode: inhibitor
Concentration: 20 µM
Structure (SMILES)	inhibition [%]
COc1ccc2cc(C(C)C(=O)Oc3ccc(C(N)=S)cc3)ccc2c1 (stereo not drawn)	10.6
Cc1cccc(Oc2nc3c(C)cccn3c(=O)c2/C=C(\C#N)c2nc3ccccc3s2)c1	6.59
CN(NC(=O)CC(=O)NN(C)C(=S)c1ccccc1)C(=S)c1ccccc1	0.15
CC1(C)C(=O)N(CCN2CCC(C(=O)c3ccc(F)cc3)CC2)c2ccccc21	8.46
Cc1nc(C)c(-c2ccc(C3CCC(CC(=O)O)CC3)cc2)nc1C(N)=O (stereo not drawn)	2.78
CCN(CC)CCOC(=O)c1cc(Cl)c(N)cc1OC	7.24
CNC(=O)c1ccc2cc([C@@]3(O)CCn4cncc43)ccc2c1	12.2
CC(C)(C)c1ccc(-c2nc3ccccc3[nH]2)cc1	5.19
CCCn1c(=O)c2[nH]c(-c3ccccc3)nc2n(CCC)c1=O	-0.95
O=C(NC1CCN(CCCCC2(C(=O)NCC(F)(F)F)c3ccccc3-c3ccccc32)CC1)c1ccccc1-c1ccc(C(F)(F)F)cc1	5.82
O=C(O)c1cc(=O)[nH]c(=O)[nH]1	6.95
CC(CNC1CCCCC1)OC(=O)c1ccccc1 (stereo not drawn)	4.88
c1ccc(NCc2ccc(CNc3ccccn3)cc2)nc1	0.96
N#CCC(=O)c1ccccc1	2.78
O=C(O)CCc1c[nH]c2ccccc12	-2.05
Cc1ccc(Cl)c(OCC(O)CNC(C)(C)C)c1 (stereo not drawn)	-10.4
O=c1c2ccccc2nc2n1CCCCC2	4.65
NS(=O)(=O)c1cc(-c2nnn[nH]2)c(NCc2cccs2)cc1Cl	-0.18

Other studies, line by line
rep main protease: Replicase polyprotein 1ab, main protease (rep, Severe acute respiratory syndrome coronavirus 2, UniProt P0DTD1)
B1: yoeB 1-88 (Staphylococcus aureus, UniProt A0A3A3ATA4); chain MARLNITFSPQAFEDYKYFQQNNKKMVKKINELLKSIDRNGALEGIGKPEKLKSNLTGYYSRRINHEHRLVYTVDDNHIKIASCKYHY
Substance	tested on	assay	system	conditions	scale	quantity	value
Rhodiosin	rep main protease	inactivator				kinact/KI	408 M⁻¹ s⁻¹
COc1ccc(C[C@H](NC(=O)[C@H](C)NC(=O)CN2CCOCC2)C(=O)N[C@@H](Cc2ccccc2)C(=O)C2(C)CO2)cc1 (stereo in doubt)	rep main protease	reporter gene (Gaussia luciferase), inhibitor		20 µM		inhibition	-5.46%
CC[C@H](C)[C@H](NC(=O)[C@H](CC(C)C)NC(=O)[C@H](Cc1c[nH]c2ccccc12)NC(=O)[C@H](CCC(N)=O)NC(=O)[C@@H](NC(=O)[C@H](Cc1ccccc1)NC(=O)[C@H](C)NC(=O)[C@H](CCCCNC(=O)COCCOCCNC(=O)COCCOCCNC(=O)CC[C@H](NC(=O)CCCCCCCCCCCCCCCCCCC(=O)O)C(=O)O)NC(=O)[C@H](CCC(N)=O)NC(=O)[C@H](C)NC(=O)[C@@H](NC(=O)[C@H](CCCCN)NC(=O)[C@H](CC(=O)O)NC(=O)[C@H](CC(C)C)NC(=O)C(C)(C)NC(=O)[C@@H](NC(=O)[C@H](CO)NC(=O)[C@H](Cc1ccc(O)cc1)NC(=O)[C@H](CC(=O)O)NC(=O)[C@H](CO)NC(=O)[C@@H](NC(=O)[C@H](Cc1ccccc1)NC(=O)[C@@H](NC(=O)CNC(=O)[C@H](CCC(=O)O)NC(=O)C(C)(C)NC(=O)[C@@H](N)Cc1ccc(O)cc1)[C@@H](C)O)[C@@H](C)O)[C@@H](C)CC)[C@@H](C)CC)C(C)C)C(=O)N[C@@H](C)C(=O)NCC(=O)NCC(=O)N1CCC[C@H]1C(=O)N[C@@H](CO)C(=O)N[C@@H](CO)C(=O)NCC(=O)N[C@@H](C)C(=O)N1CCC[C@H]1C(=O)N1CCC[C@H]1C(=O)N1CCC[C@H]1C(=O)N[C@@H](CO)C(N)=O			healthy subjects, single ascending dose	0.5 mg, titre increase ≥4-fold		treatment-boosted ADA positive subjects	0%
EELKKLLEQWNLVIG	human CD4 T cells	AIM	peptide			responding donors	13%
LMP1 D150A (Epstein-Barr virus)	itself	luciferase reporter	HEp2		baseline: LMP-1 expressing cells, higher = less activity	NFκB reporter activity	6 fold less
RTCKDLIPVSECTDIRCRTSMKYRLNLCRKTCGSC (HmK mature tethered (Heteractis magnifica, UniProt O16846); C-terminal GPI anchor)	KCNA3 (Homo sapiens, UniProt P22001-1)	channel current block, two-electrode voltage clamp				koff	0.016 s⁻¹
hemin	rep main protease	enzyme activity, inhibitor		1 h preincubation, 37 °C, with: Tween-20 0.05%		IC50	25 µM
B1 (yoeB 1-88)	yefM (Staphylococcus aureus, UniProt A0A0B4ND47)	SEC-MALS				YoeB per YefM	1 YoeB per YefM
insulin human		measured: ACHE mRNA	EcoHIV-infected mouse, brain	i.p., dose not given	baseline: PBS	fold change	0.991
SLLIVNNATNVVIKV	human CD4 T cells	AIM	peptide			responding donors	9%
Cc1onc(-c2ccccc2)c1-c1ccc(S(N)(=O)=O)cc1	HEK-293T	pseudovirus infection, FDA-approved drug library screen	VSV pseudotyped with SARS-CoV-2 spike	10 µM, 16 h	baseline: vehicle-treated	GFP-positive cells	103%
NAPRITFGGP	PBMC from COVID-19 convalescents	T-cell response, ELISpot	peptide	concentration not given, HLA-B*07:02		responding individuals	21% and 21.5%
Kaliotoxin	human iPSC-derived microglia	cytokine release, ELISA		2 µM, with: LPS		IL-6 release	no effect
BKRF4 fragment W84Y/P86A (Epstein-Barr virus)	H2A/H2B dimer (Homo sapiens)	ITC		25 °C, NaCl 0.5 M	baseline: wild type, lower = weaker binding	relative binding	8 fold
CC(=O)c1ccc(O)c(O)c1	rep main protease	reporter gene (Gaussia luciferase), inhibitor		20 µM		inhibition	-0.782%

Repeated from above (other studies, line by line):
Substance	tested on	assay	system	conditions	scale	quantity	value
NAPRITFGGP	PBMC from COVID-19 convalescents	T-cell response, ELISpot	peptide	concentration not given, HLA-B*07:02		responding individuals	21% and 21.5%
Kaliotoxin	human iPSC-derived microglia	cytokine release, ELISA		2 µM, with: LPS		IL-6 release	no effect
